Experimental data collected from several papers.
Parts stem from different laboratories: compare values within a part only.
UniProt Q16659, sequence (whole entry, looked up): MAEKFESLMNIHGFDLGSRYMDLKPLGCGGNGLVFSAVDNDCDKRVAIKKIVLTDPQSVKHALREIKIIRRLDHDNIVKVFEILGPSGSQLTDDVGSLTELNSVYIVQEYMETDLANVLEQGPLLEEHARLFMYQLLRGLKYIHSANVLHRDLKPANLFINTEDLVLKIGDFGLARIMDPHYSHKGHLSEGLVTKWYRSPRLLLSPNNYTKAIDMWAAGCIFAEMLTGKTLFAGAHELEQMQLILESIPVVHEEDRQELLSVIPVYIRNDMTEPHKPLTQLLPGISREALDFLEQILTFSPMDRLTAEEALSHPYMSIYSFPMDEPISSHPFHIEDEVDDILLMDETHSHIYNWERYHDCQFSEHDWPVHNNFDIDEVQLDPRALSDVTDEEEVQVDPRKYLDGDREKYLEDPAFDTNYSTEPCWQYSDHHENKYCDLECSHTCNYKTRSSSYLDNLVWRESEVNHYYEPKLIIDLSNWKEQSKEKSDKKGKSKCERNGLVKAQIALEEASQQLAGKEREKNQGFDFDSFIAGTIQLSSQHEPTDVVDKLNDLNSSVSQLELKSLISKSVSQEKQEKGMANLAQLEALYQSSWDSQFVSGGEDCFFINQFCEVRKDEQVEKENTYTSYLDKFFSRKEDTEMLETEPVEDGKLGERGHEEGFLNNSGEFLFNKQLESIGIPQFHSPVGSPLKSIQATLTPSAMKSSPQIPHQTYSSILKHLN

Study 1 — technique: aptamer microarray, sandwich; form: DNA with 2'F-ANA; matrix: in vitro; concentration: 200 nM; added: Cy3 exosite-II aptamer, 400 nM; reading: higher = stronger binding; sequence: GGTTGGTGTGGTTGG
Target: Prothrombin, mature alpha-thrombin (F2, Homo sapiens, UniProt P00734)
Setting: whole 15-mer aptamer, many near background
Modification	mean fluorescence intensity
2'F-ANA at 1 3 4 5 8 9 10 14	44.5 a.u.
2'F-ANA at 1 4 10 12 13 15	56.8 a.u.
2'F-ANA at 1 2 3 4 6 9 10 11 15	62.6 a.u.
2'F-ANA at 3 6 7 8 9 12 14	640 a.u.
2'F-ANA at 2 6 8 10 11	116 a.u.
2'F-ANA at 2 5 10 11 12 13	47.8 a.u.
2'F-ANA at 1 4 8 9 11 12 13	188 a.u.
2'F-ANA at 1 2 4 6 8 9 14	107 a.u.

Study 2 — technique: RNAcompete; form: RNA; matrix: in vitro; concentration: 20 nM; setting: 7-mer, probes averaged, single round; relative to: mean of 7-mers; reading: higher = stronger binding
Target: PABPC1L2, full length, GST fusion (mouse, UniProt A0ABA7IW68)
Residues (chain): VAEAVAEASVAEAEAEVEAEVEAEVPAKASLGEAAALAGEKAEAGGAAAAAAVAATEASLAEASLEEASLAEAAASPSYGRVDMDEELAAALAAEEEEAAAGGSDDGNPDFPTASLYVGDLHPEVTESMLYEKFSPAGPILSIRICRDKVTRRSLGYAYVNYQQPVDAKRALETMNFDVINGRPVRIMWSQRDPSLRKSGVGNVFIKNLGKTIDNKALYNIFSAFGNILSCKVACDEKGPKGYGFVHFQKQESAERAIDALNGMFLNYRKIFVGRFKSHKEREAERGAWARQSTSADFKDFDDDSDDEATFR
Sequence	7-mer Z-score
GGAGGGU	0.434
UUAGGCA	0.184
GACGCAU	-0.0953
CUUCACA	-0.159
AGCGGUC	-0.249
GUAUUCG	-0.13
AGCAGGC	0.229
GCUGUGG	-0.0464

Study 3 — technique: protein-binding microarray; form: double-stranded DNA, one strand shown; matrix: in vitro; concentration: 2540 nM top; setting: 60-bp whole probe; added: salmon DNA 0.4 mg/ml; relative to: random background probes; reading: higher = stronger binding
Target: Interferon regulatory factor 3, full length, phosphomimetic (IRF3, Homo sapiens, UniProt Q14653, residues 1-427, S386D/S396D/S398D/S402D/T404D/S405D)
Shared flanks, not repeated: GCCTAGCAC … GTGCTAGGTCTTGATTCGCTTGACGCTGCTG
Target sequence (chain): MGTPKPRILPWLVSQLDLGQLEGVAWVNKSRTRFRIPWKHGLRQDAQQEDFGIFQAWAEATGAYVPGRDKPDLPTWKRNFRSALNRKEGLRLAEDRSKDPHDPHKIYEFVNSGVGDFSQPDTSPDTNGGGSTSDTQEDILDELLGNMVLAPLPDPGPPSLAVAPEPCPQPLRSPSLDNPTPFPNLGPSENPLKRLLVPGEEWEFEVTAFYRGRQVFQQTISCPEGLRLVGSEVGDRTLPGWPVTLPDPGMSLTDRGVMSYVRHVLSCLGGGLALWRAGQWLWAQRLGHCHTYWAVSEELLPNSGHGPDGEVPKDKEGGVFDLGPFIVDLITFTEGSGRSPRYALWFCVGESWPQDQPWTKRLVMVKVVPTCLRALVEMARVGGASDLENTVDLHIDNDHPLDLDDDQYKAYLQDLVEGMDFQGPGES
Sequence	fitted relative affinity
TCAGATATCAGTTTCGATTA	4.74 z-score
TCATCTGTCAGTTTTGAACT	0.953 z-score
TTAGATTCCAGTTTCGACTA	3.64 z-score
GACGGTTCCCTTTTCATGAC	6.05 z-score
TTAGGTTTCCTTTCCTTTTA	11.3 z-score
TTTTTGGATGCTGGAAAAAT	0.791 z-score
TTAGGTCTCGCTCTCGGTTA	0.375 z-score
TTCTTGCGGAGTTTCTTGCA	0.593 z-score

Mixed results
Structure (SMILES)	target	observed	technique	concentration	quantity	value
O=C(NS(=O)(=O)c1ccc(NCC2CCOCC2)c([N+](=O)[O-])c1)c1ccc(N2CCN(Cc3ccc(C(F)(F)F)cc3-c3ccc(Cl)cc3)CC2)cc1Oc1cnc2[nH]ccc2c1	Mitogen-activated protein kinase 6 (MAPK6, Homo sapiens, UniProt Q16659)	cell-free assay	competition with immobilised ligand	1 µM	remaining binding	100%
